# Measurements pooled from the literature.
# Compare with care: the assays were run in different laboratories. Values joined by “and” are separate records of one study, mostly repeats; a detail may differ.
# RPS6KA5 N-terminal kinase domain: Ribosomal protein S6 kinase alpha-5, N-terminal kinase domain (RPS6KA5, Homo sapiens, UniProt O75582)
# RPS6KA5: Ribosomal protein S6 kinase alpha-5 (RPS6KA5, Homo sapiens, UniProt O75582)
# RPS6KA5 C-terminal kinase domain: Ribosomal protein S6 kinase alpha-5, C-terminal kinase domain (RPS6KA5, Homo sapiens, UniProt O75582)
SMILES,target,test,system,conditions,scale,quantity,result
CC(C)=CC1OC(C)(C)C2C=C3C(=O)C(Cl)=CC(O)C3C3C(O)C4OC4C(=O)C132 (stereo not shown),RPS6KA5 N-terminal kinase domain,"binder, KINOMEscan competition binding",,10 µM,reference: DMSO control,remaining binding,89%
COc1c(OCCCN2CCOCC2)ccc2c1N=C(NC(=O)c1cnc(N)nc1)N1CCN=C21,RPS6KA5,"kinase activity, inhibitor",,1 µM,reference: untreated control,remaining activity,106%
CCN1CCN(Cc2ccc(C(=O)Nc3ccc(C)c(NCc4cnc5[nH]ccc5c4OC)c3)cc2C(F)(F)F)CC1,RPS6KA5 C-terminal kinase domain,"binding, competition with immobilised ligand",,1 µM,,remaining binding,89%
Cc1cccc(-c2ccc3nc(NC(=O)C4CCCO4)nn3c2)c1 (stereo not shown),RPS6KA5,"enzyme activity, Dundee kinase panel",,10 µM,,remaining activity,71%
C=CC(=O)Nc1cccc(-c2cnc3[nH]cc(C(=O)NC(C)(C)C)c3n2)c1,RPS6KA5,kinase activity,,0.1 µM,,inhibition,15% and -1%
CNC(=O)C[C@H](Cc1ccc(C#N)cc1)NC(=O)c1cc(-c2ccc(CN[C@H](C)c3ccc(C)cc3)o2)ccc1Cl,RPS6KA5,"enzyme activity, inhibitor",,1 µM,,activity vs control,92%
Cc1ccc(-c2c(/C=C(\C#N)C(=O)NC(C)C)n(CCCO)c3ncnc(N)c23)cc1,RPS6KA5 N-terminal kinase domain,"binding, competition with immobilised ligand",,1 µM,,remaining binding,100%
COc1c(Cl)cccc1Nc1c(-c2ccncc2C#C[C@@]2(C)CCCN2C(=O)/C=C/CN(C)C)[nH]c2c1C(=O)NCC2,RPS6KA5 N-terminal kinase domain,"binding, competition with immobilised ligand",,3 µM,,remaining binding,91%
Cc1cccc(O[C@H]2CCC[C@@H](C(C)CNCc3ccncc3)C2)c1 (relative stereo),RPS6KA5,"enzyme activity, inhibitor",,10 µM,,inhibition,-14%
Cc1cccc(-c2ccc3nc(NC(=O)C4CCCCC4)nn3c2)c1,RPS6KA5,"enzyme activity, Dundee kinase panel",,10 µM,,remaining activity,68%
CNC1C[S+]2CC[S+]3CC[S+](C1)[Ru-4]321([N]=C=S)[n]2c3ccc(OC)cc3c3c4c(c5cc(F)c[n+]1c5c32)C(=O)NC4=O (stereo not shown),RPS6KA5 C-terminal kinase domain,KinomeScan,,0.1 µM,reference: untreated,remaining binding,35%
Cc1nc2c(F)cc(-c3nc(Nc4ccc(CNC(=O)CCCCCCC(=O)NO)cc4)ncc3F)cc2n1C(C)C,RPS6KA5,"enzyme activity, inhibitor",,1 µM,,inhibition,84%
COc1cc(Nc2nc(C)cc(-c3cnn4nc(OC)ccc34)n2)cc(C(F)(F)F)c1,RPS6KA5 N-terminal kinase domain,"binding, competition with immobilised ligand",,1 µM,,remaining binding,100%
C=CC(=O)Nc1cc(-c2nn(C3CCN(CCNC(=O)[C@H](C)CCC45CC6CC(CC(C6)C4)C5)CC3)c3ncnc(N)c23)ccc1Oc1ccccc1,RPS6KA5 N-terminal kinase domain,"inhibitor, KiNativ profiling",biochemical,2 µM,,inhibition,30.4%
CNC(=O)C1CCN(c2cc(C)c(F)cc2NC(=O)c2ccc(-c3cc(O)ccc3C)c(C)c2)CC1,RPS6KA5 N-terminal kinase domain,"binding, competition with immobilised ligand",,1 µM,,remaining binding,100%
Nc1ncc2c(n1)-c1c([nH]c3ccc(C4=CCOCC4)cc13)CCC2,RPS6KA5 C-terminal kinase domain,"binding, competition with immobilised ligand",,1 µM,,remaining binding,78%
N[C@H]1CC[C@H](Nc2nccc(-c3cccnc3Oc3ccc(NC(=O)NC4CC4)c4ccccc34)n2)CC1,RPS6KA5,kinobead competition pulldown,HEK293/HCT116 lysate mixture,"10 µM, 1 h, 4 °C",lower = stronger competition,log2 LFQ intensity,20.6 and 21.5 and 21.7 and 20.2
C=CC(=O)N1CCCC(n2c(=O)c3ncccc3n(Cc3ccc(Oc4ccccc4)cc3)c2=O)C1 (stereo not shown),RPS6KA5 N-terminal kinase domain,"binding, competition with immobilised ligand",,1 µM,,remaining binding,90%
O=C(Cc1ccc(OCc2ccccc2)cc1)NC1(C(=O)O)CCN(C(=O)c2ccc(-c3cccc(Cl)c3)cc2)CC1,RPS6KA5,"enzyme activity, inhibitor",,10 µM,,activity vs control,137%
Nc1nc(Nc2ccccc2)sc1C(=O)c1ccccc1,RPS6KA5,"enzyme activity, inhibitor",,10 µM,,remaining activity,73%
COc1cc(Nc2nccc(-c3cnn4nc(OC)ccc34)n2)cc(C(F)(F)F)c1,RPS6KA5 N-terminal kinase domain,"binding, competition with immobilised ligand",,1 µM,,remaining binding,100%
CS(=O)(=O)Nc1cccc(-c2csc3cnc(Nc4ccc(N5CCN(CCCCCOc6cccc7c6C(=O)N(C6CCC(=O)NC6=O)C7=O)CC5)cc4)nc23)c1 (stereo not shown),RPS6KA5 N-terminal kinase domain,"probe labelling, inhibitor, KiNativ chemoproteomics",MOLT-4,1 µM,,inhibition,-11.1%
Cc1cnc2nc1Nc1cccc(c1)COC/C=C/COCc1cc(ccc1OCCN1CCOCC1)N2,RPS6KA5 N-terminal kinase domain,"binding, competition with immobilised ligand",,0.1 µM,,remaining binding,100%
NC(=O)[C@@H](O)C[C@H]1CCc2sc3ncnc(O[C@H]4CC[C@H](N5CCOCC5)CC4)c3c21,RPS6KA5,"enzyme activity, inhibitor",,10 µM,,inhibition,17%
COc1ccc(NC(=O)Nc2ccc3c(c2)C(=O)N(C(C)CO)CC(C)C(CN(C)Cc2ccc4c(c2)OCO4)O3)cc1 (stereo not shown),RPS6KA5,"kinase activity, KinaseProfiler",,"0.03 µM, species human",reference: control,remaining activity,103%

# Excerpt of the above:
SMILES,target,test,system,conditions,scale,quantity,result
Cc1ccc(-c2c(/C=C(\C#N)C(=O)NC(C)C)n(CCCO)c3ncnc(N)c23)cc1,RPS6KA5 N-terminal kinase domain,"binding, competition with immobilised ligand",,1 µM,,remaining binding,100%
CNC1C[S+]2CC[S+]3CC[S+](C1)[Ru-4]321([N]=C=S)[n]2c3ccc(OC)cc3c3c4c(c5cc(F)c[n+]1c5c32)C(=O)NC4=O (stereo not shown),RPS6KA5 C-terminal kinase domain,KinomeScan,,0.1 µM,reference: untreated,remaining binding,35%
